Assay results from different studies.
Compare with care: the assays were run in different laboratories. Numbers after ± are the reported error.
AURKA: Aurora kinase A (AURKA, Homo sapiens, UniProt O14965)
Sequence of UniProt O14965 (whole entry, looked up): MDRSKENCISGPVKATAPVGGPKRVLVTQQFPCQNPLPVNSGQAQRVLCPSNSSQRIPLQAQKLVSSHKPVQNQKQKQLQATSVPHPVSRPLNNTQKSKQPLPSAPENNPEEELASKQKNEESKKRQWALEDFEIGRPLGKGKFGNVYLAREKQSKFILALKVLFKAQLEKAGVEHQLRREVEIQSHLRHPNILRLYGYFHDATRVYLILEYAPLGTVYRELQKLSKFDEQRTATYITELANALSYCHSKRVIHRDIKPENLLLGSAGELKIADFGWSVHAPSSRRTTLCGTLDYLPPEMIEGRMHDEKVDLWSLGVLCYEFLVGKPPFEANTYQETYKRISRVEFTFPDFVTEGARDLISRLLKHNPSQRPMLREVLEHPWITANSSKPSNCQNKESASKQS

`COCCNc1nc2ccc(C#CC3(O)CCCCC3)cc2n1-c1ccnc(N)n1`: “remaining kinase activity” 10.2% (AURKA; enzyme activity, inhibitor, Z'-LYTE; 1 µM; reference: no-inhibitor control).
`CC[C@@H]1[C@H](F)C(=O)N[C@@H]1COc1nccc2cc(C(N)=O)c(OC)cc12` gave an inhibition of -2.4% (AURKA; ATP probe binding, KiNativ profiling, item: Lys1 probe site; THP-1 cell lysate; 0.04 mM).
`CN(C)C(=O)c1cc2cnc(Nc3ccc(-c4ccc5c(=O)cc(N6CCOCC6)oc5c4)cc3)nc2n1C1CCCC1` has a remaining binding of 0% (AURKA; KINOMEscan binding; 1.0 µM; reference: control).
`CC/C(=N\NC(=O)NCc1cccc(O)c1)c1ccc(O)c(C)c1O` gave an inhibition of 4.2% (Aurora kinase A, with TPX2 (AURKA, Homo sapiens, UniProt O14965); kinase activity; 0.1 µM).
With `C=CC(=O)N1CCC[C@@H](n2nc(-c3ccc(Oc4ccccc4)cc3)c3c(N)ncnc32)C1` the remaining activity was 81.4 ± 2.5% (AURKA; kinase activity, inhibitor, HotSpot radiometric; 100 nM, together with: ATP 10 µM).
`C=CC(=O)N1CCC(COCC(=O)N2CCN(c3nc(-c4cnc(N)nc4C(F)F)nc(N4CCOC[C@@H]4C)n3)CC2)CC1` gave a remaining binding of 95% (AURKA; KINOMEscan; 1 µM).
The remaining activity of `COc1ccc(F)cc1C(=O)NCc1ccc(-c2nn([C@@H](C)C(F)(F)F)c(N)c2C(N)=O)cc1` is reported as 80.4 ± 1.2% (AURKA; kinase activity, inhibitor, HotSpot radiometric; 100 nM, together with: ATP 10 µM).
`O=C1NC(=O)/C(=C/c2ccc(-c3ccc(F)cc3O)o2)S1` gave a remaining activity of 95% (AURKA; enzyme activity; 10 µM).
`[2H]c1cc(C)c(NC(=O)c2cnc(Nc3cc(N4CCCCC4)nc(C)n3)s2)c(Cl)c1` has an inhibition of less than 30% (AURKA; 0.01 µM).
For `CC(=O)ON=C1C=CC(=C(C#N)c2ccccc2)C=C1`, the inhibition was 34% (AURKA; kinase activity, ADP-Glo; 20 µM).
`C=CC(=O)N1CCC([C@@H]2CCNc3c(C(N)=O)c(-c4ccc(Oc5ccccc5)cc4)nn32)CC1` gave a remaining activity of 92.7 ± 0.3% (AURKA; kinase activity, inhibitor, HotSpot radiometric; 100 nM, together with: ATP 10 µM).
With `COc1cc(F)ccc1-c1ncnc(Nc2cccc(C[S@](C)(=N)=O)c2)n1` the remaining activity was 48% (AURKA; kinase activity; 10 µM, together with: 10 µM ATP).

A few entries again:
`CC/C(=N\NC(=O)NCc1cccc(O)c1)c1ccc(O)c(C)c1O` gave an inhibition of 4.2% (Aurora kinase A, with TPX2 (AURKA, Homo sapiens, UniProt O14965); kinase activity; 0.1 µM).
With `C=CC(=O)N1CCC[C@@H](n2nc(-c3ccc(Oc4ccccc4)cc3)c3c(N)ncnc32)C1` the remaining activity was 81.4 ± 2.5% (AURKA; kinase activity, inhibitor, HotSpot radiometric; 100 nM, together with: ATP 10 µM).
